Measurements of several laboratories.
Each numbered part is a random draw from the data of one study; scales do not carry over between parts.

Set 1 — technique: universal PBM; molecule type: double-stranded DNA, one strand shown; matrix: in vitro; tested at: not given; direction: higher = stronger binding
Target: Sal-like protein 4, full length isoform B (SALL4, Homo sapiens, UniProt Q9UJQ4-2, residues 1-616)
Notes: 8-mer, flanks averaged, mean of replicates
Target sequence (chain): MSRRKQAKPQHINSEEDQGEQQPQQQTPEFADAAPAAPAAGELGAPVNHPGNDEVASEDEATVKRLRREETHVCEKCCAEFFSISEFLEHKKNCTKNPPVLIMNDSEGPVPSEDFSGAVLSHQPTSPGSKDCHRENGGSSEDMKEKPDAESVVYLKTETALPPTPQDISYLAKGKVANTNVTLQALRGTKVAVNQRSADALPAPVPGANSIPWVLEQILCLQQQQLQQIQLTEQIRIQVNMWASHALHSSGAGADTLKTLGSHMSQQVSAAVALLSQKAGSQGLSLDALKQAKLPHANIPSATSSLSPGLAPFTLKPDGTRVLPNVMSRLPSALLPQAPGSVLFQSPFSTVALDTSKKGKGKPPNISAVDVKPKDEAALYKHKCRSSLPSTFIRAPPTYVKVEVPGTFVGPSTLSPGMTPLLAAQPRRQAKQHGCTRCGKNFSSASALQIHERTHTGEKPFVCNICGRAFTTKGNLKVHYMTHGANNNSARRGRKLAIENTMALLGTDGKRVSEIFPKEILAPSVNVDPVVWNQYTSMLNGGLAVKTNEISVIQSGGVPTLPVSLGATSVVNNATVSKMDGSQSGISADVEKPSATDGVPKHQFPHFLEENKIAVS
| Sequence | E-score |
| --- | --- |
| GATACGGC | -0.194 |
| ACTATGCA | 0.00556 |
| CACACATA | 0.222 |
| GGAAACGA | 0.0449 |

Set 2 — technique: protein-binding microarray; molecule type: double-stranded DNA, one strand shown; matrix: in vitro; tested at: not given; direction: higher = stronger binding
Target: Transcription factor Sp1 (SP1, Homo sapiens, UniProt P08047, residues 1-785, full length assumed)
UniProt P08047, sequence (whole entry, looked up): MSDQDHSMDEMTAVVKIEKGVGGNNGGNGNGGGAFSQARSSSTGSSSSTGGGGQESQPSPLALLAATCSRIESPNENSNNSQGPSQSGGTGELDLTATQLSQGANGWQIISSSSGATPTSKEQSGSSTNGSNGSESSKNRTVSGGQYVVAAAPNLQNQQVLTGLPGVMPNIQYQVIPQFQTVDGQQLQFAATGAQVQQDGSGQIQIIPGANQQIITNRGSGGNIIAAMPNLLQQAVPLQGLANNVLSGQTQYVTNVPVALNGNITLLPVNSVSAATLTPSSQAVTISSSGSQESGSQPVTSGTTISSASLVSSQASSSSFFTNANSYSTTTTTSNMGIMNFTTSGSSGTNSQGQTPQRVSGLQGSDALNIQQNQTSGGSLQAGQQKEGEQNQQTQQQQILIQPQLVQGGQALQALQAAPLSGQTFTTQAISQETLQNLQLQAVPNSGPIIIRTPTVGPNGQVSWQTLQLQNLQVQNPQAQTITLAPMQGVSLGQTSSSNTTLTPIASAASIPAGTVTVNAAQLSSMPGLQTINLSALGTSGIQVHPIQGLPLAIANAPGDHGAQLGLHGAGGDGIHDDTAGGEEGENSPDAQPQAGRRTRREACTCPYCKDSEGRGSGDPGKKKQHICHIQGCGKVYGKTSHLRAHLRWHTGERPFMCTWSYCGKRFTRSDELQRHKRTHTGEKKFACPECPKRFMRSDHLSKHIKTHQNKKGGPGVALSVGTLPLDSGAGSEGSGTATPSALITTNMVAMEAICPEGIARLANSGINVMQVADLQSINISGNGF
Notes: k-mer, scored over probes, only values ≥0.25
| Sequence | E-score |
| --- | --- |
| ATAGAGGG | 0.334 |
| GGCGTGGA | 0.302 |
| ACACGCCC | 0.414 |
| ACAACAAT | 0.294 |

Set 3 — technique: protein binding microarray; molecule type: double-stranded DNA, one strand shown; matrix: in vitro; tested at: not given; reference: not given; direction: higher = stronger binding
Target: Histone acetyltransferase KAT6A, both winged helices, GST fusion (KAT6A, Homo sapiens, UniProt Q92794, residues 1-181)
Notes: 8-mer, flanks averaged, mean of 2 arrays, mostly near background
Residues (chain): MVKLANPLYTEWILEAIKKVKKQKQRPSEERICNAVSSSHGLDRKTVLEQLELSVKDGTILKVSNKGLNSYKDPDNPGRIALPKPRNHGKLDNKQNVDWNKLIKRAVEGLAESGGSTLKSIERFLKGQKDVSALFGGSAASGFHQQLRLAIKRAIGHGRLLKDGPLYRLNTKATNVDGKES
| Sequence | E-score |
| --- | --- |
| GCAGTCTA | -0.146 |
| ACCCATTG | -0.0773 |
| AAAAGGGT | -0.0961 |
| AGATGTGG | -0.229 |

Other studies, line by line
| Molecule | target | test | system | setting | how to read | quantity | result |
| --- | --- | --- | --- | --- | --- | --- | --- |
| PhoQ, residues 284 288 289 292 302 303 SASVAL | PhoP, residues 12 14 15 18 19 FWNTL (Escherichia coli, UniProt P23836) | Sort-seq, refers to: YFP reporter | E. coli | PhoQ-PhoP variant library, with: 10 µM Mg2+ | reference: high Mg2+ state, higher = stronger signaling | fold induction | 0.527 |

Excerpt of the above (set 3):
| Sequence | E-score |
| --- | --- |
| AGATGTGG | -0.229 |
| GCAGTCTA | -0.146 |
